Results gathered from unrelated publications.
Every numbered part comes from another study and shows a few of its results, in no order.

Block 1
Target: Histone acetyltransferase KAT6A, winged helix 1, GST fusion (KAT6A, Homo sapiens, UniProt Q92794, residues 1-85)
Method: protein binding microarray
Molecule type: double-stranded DNA, one strand shown
Sample: in vitro
Concentration: not given
Setting: 8-mer, flanks averaged, mean of 2 arrays, mostly near background
Baseline: not given
Reading: higher = stronger binding
Residues (chain): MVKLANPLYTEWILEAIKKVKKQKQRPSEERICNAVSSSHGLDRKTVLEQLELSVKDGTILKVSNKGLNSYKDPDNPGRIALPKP
| Sequence | E-score |
| --- | --- |
| AGTGTATC | -0.226 |
| GCCAAGCA | -0.13 |
| CACGTCCA | -0.129 |
| CTGAGCGC | 0.316 |
| ACCGACTA | 0.119 |
| CAAAGCCC | 0.0942 |

Block 2
Target: Max dimerization protein 1, bHLH-zipper, MAX partner unstated (MXD1, Homo sapiens, UniProt Q05195, residues 56-136)
Method: protein-binding microarray
Molecule type: double-stranded DNA, one strand shown
Sample: in vitro
Concentration: not given
Setting: k-mer, scored over probes, only values ≥0.25
Reading: higher = stronger binding
Construct (chain): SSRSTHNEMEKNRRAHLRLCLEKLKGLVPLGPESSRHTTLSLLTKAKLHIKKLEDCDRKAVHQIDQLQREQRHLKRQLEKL
| Sequence | E-score |
| --- | --- |
| ACATGCTC | 0.387 |
| CGCATTGC | 0.259 |
| AACACGCC | 0.366 |
| ACCACCCC | 0.268 |

Block 3
Target: Sal-like protein 4, full length isoform A (SALL4, Homo sapiens, UniProt Q9UJQ4, residues 1-1053)
Chain of UniProt Q9UJQ4 (whole entry, looked up): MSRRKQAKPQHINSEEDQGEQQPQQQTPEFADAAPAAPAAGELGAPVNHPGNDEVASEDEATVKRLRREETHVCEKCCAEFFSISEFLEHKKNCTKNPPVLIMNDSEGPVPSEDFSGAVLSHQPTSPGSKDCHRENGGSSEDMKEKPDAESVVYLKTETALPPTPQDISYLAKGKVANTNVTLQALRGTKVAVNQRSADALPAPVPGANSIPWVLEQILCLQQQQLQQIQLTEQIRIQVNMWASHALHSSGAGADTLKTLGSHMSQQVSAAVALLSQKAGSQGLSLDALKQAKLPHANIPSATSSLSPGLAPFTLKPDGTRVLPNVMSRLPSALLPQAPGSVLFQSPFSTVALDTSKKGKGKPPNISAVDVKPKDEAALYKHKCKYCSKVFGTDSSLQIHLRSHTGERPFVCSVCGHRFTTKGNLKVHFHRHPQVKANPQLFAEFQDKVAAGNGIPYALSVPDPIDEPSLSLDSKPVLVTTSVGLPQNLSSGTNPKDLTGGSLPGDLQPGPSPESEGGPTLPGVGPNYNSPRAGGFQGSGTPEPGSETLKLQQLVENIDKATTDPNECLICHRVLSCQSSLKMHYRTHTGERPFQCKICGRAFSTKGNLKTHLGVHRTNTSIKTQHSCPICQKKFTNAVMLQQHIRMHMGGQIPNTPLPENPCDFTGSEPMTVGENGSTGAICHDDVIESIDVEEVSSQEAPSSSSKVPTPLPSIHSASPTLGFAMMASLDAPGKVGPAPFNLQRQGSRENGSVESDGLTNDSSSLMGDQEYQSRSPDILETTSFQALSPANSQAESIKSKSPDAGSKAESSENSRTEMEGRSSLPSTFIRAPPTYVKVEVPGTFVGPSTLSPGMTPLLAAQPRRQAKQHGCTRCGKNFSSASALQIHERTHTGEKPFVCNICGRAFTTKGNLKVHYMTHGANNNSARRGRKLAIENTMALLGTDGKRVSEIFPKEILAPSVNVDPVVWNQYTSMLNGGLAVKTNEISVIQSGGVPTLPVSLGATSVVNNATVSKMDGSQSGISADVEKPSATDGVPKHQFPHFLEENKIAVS
Method: universal PBM
Molecule type: double-stranded DNA, one strand shown
Sample: in vitro
Concentration: 600 nM
Setting: 8-mer, flanks averaged, mean of replicates
Reading: higher = stronger binding
| Sequence | E-score |
| --- | --- |
| CTGCCGAC | -0.252 |
| ATGTCATC | -0.0181 |
| GCGGTGGA | -0.279 |
| GCTCTGAA | -0.0659 |
| GTTTTAAA | 0.24 |
| AATCGAGG | -0.114 |
| GAAAAGGA | 0.1 |
| ACACAACG | 0.111 |

Other studies, line by line
| Molecule | target | assay | system | conditions | how to read | endpoint | value |
| --- | --- | --- | --- | --- | --- | --- | --- |
| PhoQ, residues 284 288 289 292 302 303 GANMMA | PhoP, residues 12 14 15 18 19 AWHSL (Escherichia coli, UniProt P23836) | Sort-seq, item: YFP reporter | E. coli | PhoQ-PhoP variant library, with: 10 µM Mg2+ | baseline: high Mg2+ state, higher = stronger signaling | fold induction | 2.47 |

A few entries again (other studies, line by line):
| Molecule | target | assay | system | conditions | how to read | endpoint | value |
| --- | --- | --- | --- | --- | --- | --- | --- |
| PhoQ, residues 284 288 289 292 302 303 GANMMA | PhoP, residues 12 14 15 18 19 AWHSL (Escherichia coli, UniProt P23836) | Sort-seq, item: YFP reporter | E. coli | PhoQ-PhoP variant library, with: 10 µM Mg2+ | baseline: high Mg2+ state, higher = stronger signaling | fold induction | 2.47 |
